Assay results collected from several papers.
Lines come from different studies, so protocols differ. ± gives the spread as reported.
rep main protease: Replicase polyprotein 1ab, main protease (rep, Severe acute respiratory syndrome coronavirus 2, UniProt P0DTD1)

| Structure (SMILES) | target or system | test | system | setting | scale | measurement | value |
| --- | --- | --- | --- | --- | --- | --- | --- |
| CC(=O)OCC(=O)[C@@]1(O)CC[C@H]2[C@@H]3CCC4=CC(=O)CC[C@]4(C)[C@@]3(F)[C@@H](O)C[C@@]21C | SARS-CoV-2 | viral replication | Huh-7 | – | – | IC50 | > 2000 nM |
| CCOC(=O)N1CCC(=C2c3ccc(Cl)cc3CCc3cccnc32)CC1 | SARS-CoV-2 | – | – | concentration not given, Paris laboratory | – | viral replication inhibition | inactive |
| CN1CCN(CCc2ccc(Cl)c(Cl)c2)CC1 | SARS-CoV-2 | viral replication, anti-nucleoprotein immunostaining | Vero E6 | – | – | IC50 | > 10000 nM |
| COc1ccccc1C(=O)NC1CCCN(Cc2cccc(-c3ccc(C)c(Cl)c3)c2)C1 (stereo not shown) | SARS-CoV-2 | cytopathic effect | USA_WA1/2020 | round 1, 5-point | – | efficacy | 75.3% |
| Cc1cccc(C)c1OCC(=O)N[C@@H](Cc1ccccc1)[C@@H](O)C[C@H](Cc1ccccc1)NC(=O)[C@H](C(C)C)N1CCCNC1=O | SARS-CoV-2 | viral replication | Huh-7 | – | – | IC50 | > 2000 nM |
| COc1cc2c(cc1OC)CN(CCc1ccc(NC(=O)c3cccc4c(=O)c5cccc(OC)c5[nH]c34)cc1)CC2 | SARS-CoV-2 | viral replication, RT-qPCR | A549 expressing ACE2 | – | – | IC50 | 2240 nM |
| COc1ccc2c(c1)[C@]13CCCC[C@@H]1[C@H](C2)N(C)CC3 | SARS-CoV-2 | – | Vero E6 | concentration not given, NYC laboratory | – | viral replication inhibition | inactive |
| Clc1ccc2nc(N3CCC(NCCc4cccnc4)CC3)sc2c1 | SARS-CoV-2 | cytopathic effect | USA_WA1/2020 | round 2, 5-point | – | efficacy | 101% |
| Cc1nn(-c2ccc(Cl)cc2)c2c1C(c1ccc(Br)cc1)C(C#N)=C(N)O2 (stereo not shown) | SARS-CoV-2 | RT-qPCR, measured: viral RNA | Vero | 1 µM | higher means less virus | Ct value | 23.2 cycles |
| Cc1ccc(-c2ccc3c(ccc4sc5c(c43)NC[C@@H](C)NC5=O)n2)cn1 | rep main protease | reporter gene (Gaussia luciferase), inhibitor | – | 20 µM | – | inhibition | 1.73% |
| CN[C@@H](C)C(=O)N[C@H](C(=O)N1CCC[C@H]1C(=O)Nc1snnc1-c1ccccc1)C1CCCCC1 | SARS-CoV-2 | viral replication | Vero E6, USA-WA1/2020 | 2.5 µM | – | inhibition | 42.2% |
| COc1cccc(CNC(=O)C2CCN(Cc3cc4ccccc4n3Cc3ccccc3)CC2)c1OC | SARS-CoV-2 | cytopathic effect | USA_WA1/2020 | retest, 8-point, duplicates | – | efficacy | 0% |
| C[C@@H]1CS/C(=N\NC(=O)C(=O)[C@H](NC(=O)C2CCCCCC2)C2CCOCC2)N1C | SARS-CoV-2 | viral replication | Vero E6, USA-WA1/2020 | 2.5 µM | – | inhibition | 87.2% |
| CCCCN(CCCC)CCCNC(=O)c1ccc2nc(N3CCCCC3)sc2c1 | SARS-CoV-2 | cytopathic effect, cell-based CPE | USA_WA1/2020 | round 2, 5-point dilution | – | AC50 | 11.2 µM |
| COc1cc(CNC(=O)CCCC/C=C/C(C)C)ccc1O | SARS-CoV-2 | viral replication | Huh-7 | – | – | IC50 | > 2000 nM |
| CC(C)=CCc1c(O)ccc(C(=O)/C=C/c2ccc(O)cc2)c1O | SARS-CoV-2 | viral replication | Vero E6 | 3.125 µM | baseline: mean of replicates | CPE inhibition | 0% |
| CC(=O)[C@@]12O[C@](C)(c3ccccc3)O[C@@H]1C[C@H]1[C@@H]3CCC4=CC(=O)CC[C@]4(C)[C@H]3CC[C@@]12C | SARS-CoV-2 | viral replication, GFP plate reader screen | – | cell-based | – | EC50 | > 100 µM |
| Cc1ccccc1CN1C(=O)c2ccccc2Sc2ccc(C(=O)NCCCN3CCOCC3)cc21 | SARS-CoV-2 | cytopathic effect | USA_WA1/2020 | retest, 8-point, duplicates | – | efficacy | 32.2% |
| O=C(O[C@@H]1Cc2c(O)cc(O)cc2O[C@@H]1c1cc(O)c(O)c(O)c1)c1cc(O)c(O)c(O)c1 | SARS-CoV-2 | viral cytopathic effect | Vero E6 | 0.7812 µM | – | mean inhibition | 0% |
| CNCC(O)CC12CCC(c3ccccc31)c1ccccc12 (stereo not shown) | SARS-CoV-2 | viral replication, high-content imaging screen | – | cell-based | – | EC50 | > 100 µM |
| CC(C1CCCCC1)n1c(-c2cc3c(cc2Br)OCO3)nc2cc(C(=O)Nc3ccc(C#N)cc3)ccc21 (stereo not shown) | SARS-CoV-2 | – | Vero E6 | concentration not given | – | viral inhibition | inactive |
| CCCN(CCC)CCNC(=O)c1cc(-c2ccc(Br)s2)nc2ccccc12 | SARS-CoV-2 | cytopathic effect | USA_WA1/2020 | retest, 8-point, duplicates | – | maximum response | 76.6% |
| N=C(N)c1ccc2cc(OC(=O)c3ccc(N=C(N)N)cc3)ccc2c1 | SARS-CoV-2 | – | – | concentration not given, Paris laboratory | – | viral replication inhibition | inactive |
| Nc1ncnc2c([C@@H]3N[C@H](CO)[C@@H](O)[C@H]3O)c[nH]c12 | Marburg virus | viral replication, antibody staining | HeLa, Musoke | 100 µM, 24 h | – | infected cells | 2.8% |
| CCC(CC)COC(=O)[C@H](C)N[P@](=O)(OC[C@H]1O[C@@](C#N)(c2ccc3c(N)ncnn23)[C@H](O)[C@@H]1O)Oc1ccccc1 | SARS-CoV-2 | viral replication, GFP plate reader screen | – | cell-based | – | EC50 | 4.64 µM |

| Structure (SMILES) | target or system | test | system | setting | scale | measurement | value |
| --- | --- | --- | --- | --- | --- | --- | --- |
| Cc1nn(-c2ccc(Cl)cc2)c2c1C(c1ccc(-c3ccccc3)cc1)C(C#N)=C(N)O2 (stereo not shown) | SARS-CoV-2 | viral replication | Vero | 1 µM | – | viral reduction | 0.831% |
| NC(=O)C(c1ccccc1)(c1ccccc1)[C@@H]1CCN(CCc2ccc3c(c2)CCO3)C1 | SARS-CoV-2 | viral replication, high-content imaging screen | – | cell-based | – | EC50 | > 100 µM |
| Cn1cnc(Cn2c(=O)[nH]/c(=N\c3cc4cn(C)nc4cc3Cl)n(Cc3cc(F)c(F)cc3F)c2=O)n1 | – | – | human, mild renal impairment, plasma | oral, 375 mg single dose | – | MRT | 80.8 h |
| CCC(CC)COC(=O)[C@H](C)N[P@](=O)(OC[C@H]1O[C@@](C#N)(c2ccc3c(N)ncnn23)[C@H](O)[C@@H]1O)Oc1ccccc1 | SARS-CoV-2 | RT-qPCR, measured: viral RNA | Vero | 1 µM | higher means less virus | Ct value | 26.1 cycles |
| CCCCN(C)CCNC(=O)c1cc(-c2ccc(Cl)s2)nc2ccccc12 | SARS-CoV-2 | cytopathic effect, cell-based CPE | USA_WA1/2020 | – | – | AC50 | 7.94 µM |
| Nc1cc(Cl)c(NC2=NCCN2)c(Cl)c1 | SARS-CoV-2 | viral replication | Huh-7 | – | – | IC50 | > 2000 nM |
| CC(C)(C)[C@H](NC(=O)C(F)(F)F)C(=O)N1C[C@H]2[C@@H]([C@H]1C(=O)N[C@H](C#N)C[C@@H]1CCNC1=O)C2(C)C | SARS-CoV-2 | viral replication, infectious virus | Vero E6 | 0.037 µM | – | inhibition | 16% |
| Cc1nn(-c2ccc(Cl)cc2)c2c1C(c1ccc(F)cc1F)C(C#N)=C(N)O2 (stereo not shown) | SARS-CoV-2 | – | Vero | 1 µM | – | viral titre | 1.05e+06 IU/mL |
| CCN1CCN(c2cc(C)c3cc(NC(=O)c4cccc(Cl)c4)ccc3n2)CC1 | SARS-CoV-2 | cytopathic effect | USA_WA1/2020 | round 1, 5-point | – | efficacy | 108% |
| O=C(c1ccc(F)cc1)C1CCN(CCCn2c(=O)[nH]c3cc(Cl)ccc32)CC1 | SARS-CoV-2 | viral replication, high-content imaging screen | – | cell-based | – | EC50 | > 100 µM |
| CC[C@H](C)[C@H](NC(=O)[C@H](CC(C)C)NC(=O)[C@H](Cc1c[nH]c2ccccc12)NC(=O)[C@H](CCC(N)=O)NC(=O)[C@@H](NC(=O)[C@H](Cc1ccccc1)NC(=O)[C@H](C)NC(=O)[C@H](CCCCNC(=O)COCCOCCNC(=O)COCCOCCNC(=O)CC[C@H](NC(=O)CCCCCCCCCCCCCCCCCCC(=O)O)C(=O)O)NC(=O)[C@H](CCC(N)=O)NC(=O)[C@H](C)NC(=O)[C@@H](NC(=O)[C@H](CCCCN)NC(=O)[C@H](CC(=O)O)NC(=O)[C@H](CC(C)C)NC(=O)C(C)(C)NC(=O)[C@@H](NC(=O)[C@H](CO)NC(=O)[C@H](Cc1ccc(O)cc1)NC(=O)[C@H](CC(=O)O)NC(=O)[C@H](CO)NC(=O)[C@@H](NC(=O)[C@H](Cc1ccccc1)NC(=O)[C@@H](NC(=O)CNC(=O)[C@H](CCC(=O)O)NC(=O)C(C)(C)NC(=O)[C@@H](N)Cc1ccc(O)cc1)[C@@H](C)O)[C@@H](C)O)[C@@H](C)CC)[C@@H](C)CC)C(C)C)C(=O)N[C@@H](C)C(=O)NCC(=O)NCC(=O)N1CCC[C@H]1C(=O)N[C@@H](CO)C(=O)N[C@@H](CO)C(=O)NCC(=O)N[C@@H](C)C(=O)N1CCC[C@H]1C(=O)N1CCC[C@H]1C(=O)N1CCC[C@H]1C(=O)N[C@@H](CO)C(N)=O | – | – | healthy subjects, serum | 4.5 mg, day 29, multiple ascending dose | – | serum ALT | 22 ± 10.2 U/L |
| CC(C)(/C=N/OCC(=O)O)Cc1c(SC(C)(C)C)c2cc(OCc3ccc4ccccc4n3)ccc2n1Cc1ccc(Cl)cc1 | SARS-CoV-2 | viral replication | Vero E6, USA-WA1/2020 | 2.5 µM | – | inhibition | 42% |
| Cc1ccc(NS(=O)(=O)c2cccc(C(=O)NC3CCN(c4ncnc5[nH]cnc45)CC3)c2)cc1 | SARS-CoV-2 | – | A549-ACE2, Wuhan-Hu-1 | 0.09145 µM | baseline: untreated | relative infection | 99.1% |
| CCCCc1oc2ccc(NS(C)(=O)=O)cc2c1C(=O)c1ccc(OCCCN(CCCC)CCCC)cc1 | SARS-CoV-2 | viral replication, GFP plate reader screen | – | cell-based | – | EC50 | 3.02 µM |
| O=C(/C=C/c1ccc(O)c(O)c1/C=C/c1ccc(O)c(O)c1)O[C@H](Cc1ccc(O)c(O)c1)C(=O)O | SARS-CoV-2 | viral replication | Vero E6 | 3.125 µM | – | CPE inhibition | 0% |
| CC(=O)c1ccc(NC2=C(Cl)C(=O)c3ccccc3C2=O)cc1 | rep main protease | viral replication, Gluc reporter | SARS-CoV-2 | 20 µM | – | inhibition | -6.73% |
| CCN(CC)CCOc1ccc(-c2nc3cc(Cl)ccc3s2)cc1 | SARS-CoV-2 | viral replication, GFP plate reader screen | – | cell-based | – | EC50 | 3.89 µM |
| COc1ccc(C[C@@H]2c3cc(Oc4cc(C[C@@H]5c6cc(O)c(OC)cc6CCN5C)ccc4O)c(OC)cc3CCN2C)cc1 | SARS-CoV-2 | viral replication | Vero E6 | 25 µM | baseline: mean of replicates | CPE inhibition | 0% |
| Cc1nn(-c2ccc(Cl)cc2)c2c1C(c1ccc(Cl)c(Cl)c1)C(C#N)=C(N)O2 (stereo not shown) | SARS-CoV-2 | – | Vero | 10 µM | – | viral titre | 762000 IU/mL |
| COc1cc(OC)c2c(=O)[nH]c(-c3cc(C)c(OCCO)c(C)c3)nc2c1 | SARS-CoV-2 | – | Vero E6 | concentration not given, NYC laboratory | – | viral replication inhibition | inactive |
| CN(CCc1ccc(Cl)c(Cl)c1)CCN1CCCC1 | SARS-CoV-2 | viral replication, anti-nucleoprotein immunostaining | Vero E6 | – | – | IC50 | 5370 nM |
| CC(=O)NC1(c2ccccc2)CCN(CC[C@H](CN(C)C(=O)c2ccccc2)c2ccc(Cl)c(Cl)c2)CC1 | SARS-CoV-2 | viral replication, high-content imaging screen | BetaCov/Belgium/GHB-03021/2020 | cell-based | – | EC50 | > 100 µM |
| CCN1CCCC1CNC(=O)c1cc(S(=O)(=O)CC)c(N)cc1OC (stereo not shown) | SARS-CoV-2 | viral replication, RT-qPCR | A549 expressing ACE2 | – | – | IC50 | > 10000 nM |
| Cc1cc(SCc2sc(-c3ccc(C(F)(F)F)c(F)c3)nc2C)ccc1OCC(=O)O | SARS-CoV-2 | viral replication | Huh-7 | – | – | IC50 | > 2000 nM |

A few entries again:
| Structure (SMILES) | target or system | test | system | setting | scale | measurement | value |
| --- | --- | --- | --- | --- | --- | --- | --- |
| Cc1nn(-c2ccc(Cl)cc2)c2c1C(c1ccc(F)cc1F)C(C#N)=C(N)O2 (stereo not shown) | SARS-CoV-2 | – | Vero | 1 µM | – | viral titre | 1.05e+06 IU/mL |
| COc1cc2c(cc1OC)CN(CCc1ccc(NC(=O)c3cccc4c(=O)c5cccc(OC)c5[nH]c34)cc1)CC2 | SARS-CoV-2 | viral replication, RT-qPCR | A549 expressing ACE2 | – | – | IC50 | 2240 nM |
| CC(C1CCCCC1)n1c(-c2cc3c(cc2Br)OCO3)nc2cc(C(=O)Nc3ccc(C#N)cc3)ccc21 (stereo not shown) | SARS-CoV-2 | – | Vero E6 | concentration not given | – | viral inhibition | inactive |
| Nc1ncnc2c([C@@H]3N[C@H](CO)[C@@H](O)[C@H]3O)c[nH]c12 | Marburg virus | viral replication, antibody staining | HeLa, Musoke | 100 µM, 24 h | – | infected cells | 2.8% |
| CCCN(CCC)CCNC(=O)c1cc(-c2ccc(Br)s2)nc2ccccc12 | SARS-CoV-2 | cytopathic effect | USA_WA1/2020 | retest, 8-point, duplicates | – | maximum response | 76.6% |
